# Results of several laboratories.
# Parts stem from different laboratories: compare values within a part only. Substitutions count along the parent as printed.

# Sample 1
# Target: CCND3, cyclin fold, Cln2 fusion (human)
# Method: yeast growth competition, sequencing
# Sample: yeast
# Notes: weak parent motif
# Reference: not given
# Direction: higher = stronger binding
# Parent: E2F1 docking peptide (human); PPVKRRLDLETDH
Variant,normalised enrichment score
P2A,0.0482
D8G,0.182
P1M,0.148
H13M,0.0953
R5A L7A,-0.0237
E10G,0.144
D12K,0.16
P1F,0.235
R5M,0.179
K4E,0.0857
P1D,0.065
R5S,0.0808
V3W,0.119
K4V,0.181
K4C,0.141
D12L,0.106
D8L,0.192
P2W,0.0891
E10R,0.124
V3K,0.179
R5E,0.177
D8Q,0.0634
D8K,0.152
L7E,0.0908
R6Y,0.0921

# Sample 2
# Target: Interferon regulatory factor 5, full length, phosphomimetic (IRF5, Homo sapiens, UniProt Q13568-2, residues 1-514, S451D/S453D/S456D/S462D)
# Method: protein-binding microarray
# Form: double-stranded DNA, one strand shown
# Sample: in vitro
# Tested at: 940 nM top
# Notes: 60-bp whole probe
# With: salmon DNA 0.4 mg/ml
# Reference: random background probes
# Direction: higher = stronger binding
# Constant ends, left off below: GCCTAGCAC … GTCTTGATTCGCTTGACGCTGCTG
Oligonucleotide,fitted relative affinity [z-score]
GTAGGTCTCGGACTGGGTTAGTGCTAG,0.837
GACGTACTGGGTTTCGGGACGTGCTAG,2.89
GACGTACTGGACTTTCGGGACGTGCTA,0.404
GACGGTTTCGATTTTCGGGACGTGCTA,9.28
TTAGGTATCGACACTCGGTTAGTGCTA,4.89
TTAGGTTTCCTTATCCTCTAGTGCTAG,2.03
CAAAGAAAAAGAAAAAAAAAGGTGCTA,-0.223
GACGGTCGCCTTCTCCTGACGTGCTAG,-0.128
TTAGAACTGAGACTGGATAAGTGCTAG,-0.187
GACGGACTGGGGTATCGGAACGTGCTA,0.783
CGAGTTTCTATTTTCTGAATGTGCTAG,6.12
ATAGATTTCGGGTATCGATTAGTGCTA,3.88
TTAGATACCAGTATCGATTAGTGCTAG,4.63
TTAGATTTCGGGACTGGATTAGTGCTA,0.608
TTTGCTTTCCTTTATGTACTGTGCTAG,1.11
GACGGACTGCTTCTCGTGACGTGCTAG,-0.32
TTGTTTTTTTCTATATGCAAGTGCTAG,1.59
TTAGGTTTCGGTGTCGGTTAGTGCTAG,13.6
TCACATTGCTTTCTCTTACTGTGCTAG,2.22

# Sample 3
# Target: ABI1, truncated, D143A, DHFR fusion (Arabidopsis thaliana)
# Method: DHFR PCA, deep sequencing
# Sample: yeast
# Notes: methotrexate growth selection, single substitutions
# With: (+)-ABA 710 µM
# Reference: wild-type fitted maximum
# Direction: higher = stronger binding
# Parent: PYL1, truncated, DHFR fusion (Arabidopsis thaliana); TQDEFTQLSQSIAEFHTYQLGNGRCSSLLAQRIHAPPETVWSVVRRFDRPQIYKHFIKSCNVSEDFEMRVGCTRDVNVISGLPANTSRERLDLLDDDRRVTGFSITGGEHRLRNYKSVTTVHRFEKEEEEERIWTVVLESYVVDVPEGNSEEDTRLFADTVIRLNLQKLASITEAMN; partner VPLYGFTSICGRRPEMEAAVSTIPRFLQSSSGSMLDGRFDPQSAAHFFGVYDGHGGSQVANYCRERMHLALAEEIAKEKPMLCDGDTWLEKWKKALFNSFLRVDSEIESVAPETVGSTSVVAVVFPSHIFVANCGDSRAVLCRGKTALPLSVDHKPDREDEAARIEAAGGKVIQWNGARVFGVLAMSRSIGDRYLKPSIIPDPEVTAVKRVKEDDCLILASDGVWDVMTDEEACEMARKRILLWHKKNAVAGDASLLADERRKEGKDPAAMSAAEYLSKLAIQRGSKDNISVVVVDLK
Variant,relative binding score [%]
T154R,1.18
E109A,97.9
Y115D,3.33
Q31Y,77
R88W,92.4
A13D,95.4
G81T,71.2
S11F,92.8
F15S,85.7
E38T,95.3
T17S,104
D92M,86.7
T17N,96.5
V142N,90.2
R113Y,98.6

# Sample 4
# Target: RNA binding protein fox-1 homolog 2, RRM domain, GST-SBP tag (RBFOX2, Homo sapiens, UniProt O43251-10, residues 100-194)
# Method: RNA Bind-n-Seq
# Form: RNA
# Sample: in vitro
# Tested at: 365 nM
# Notes: natural RNA segment, single round, ends assumed
# Reference: no-protein control
# Direction: higher = stronger binding
# Constant ends, left off below: GGGAGUUCUACAGUCCGACGAUC … UGGAAUUCUCGGGUGCCAA
# Residues (chain): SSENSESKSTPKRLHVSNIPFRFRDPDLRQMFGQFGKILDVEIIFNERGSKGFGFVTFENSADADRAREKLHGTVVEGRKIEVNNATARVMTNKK
Oligonucleotide,RBNS enrichment (R)
UUGACUGGGUAGGGGUCUUGUCCAUUUGUGGGGGAGGAUGUGGUGAAGGUGGACCUUCUACAAUCUGUCAUGAACUGUGAUAUUGUAAGGUCUAUAUUCUGUAUGUGGAU,1.28
AAUAUAAACAAAGAUUCAUGAUUUAUAAAUGCCAUUUAUUUAUUGAUUCCUUUUUUCAAAAUCCAAAAAGAAAUGAUGUUGGAGAAGGGAAGUUGAACGAGCAUAGUCCA,0.444
AGAUCAAACAGGAAAUUGAAAGCCACUGAACUAUGCAGCAUUUCAGUUUUCAUUUAAACACUUAGUUCAGAAACCUUAAAGGAUUUGAAUAUUUCAAAUUGCACACGUCA,1.24
GGACAGUGAUAUUGAUCUUUUCACAAUGUACGUAGCCUCUAGAAUUUUGUACAUAUGUUUGCUCUUUUUUUGUACAGACUAGUUGUUGAGAAAACAGGGGCGUUUCCUAA,1.8
AUGAAGGGAGCUCAGGAGAGCCGUCUUCAGCUGGGCUGGGGUUGGGGCUGCUGUGAGGAAAACCUGCCAUUGUGGCCCUGGAGAGUCACCAGCAGCUCUUGGGAAGGACU,0.464
UAGUCAAAUAAAUUACCUACUGGAAUAUAGCCCAAGCCAGUAAAGGUUUAAUAUUUGCAUUUUCGUGCUUUUAUUUUCUCCUUCCAUUCAUAAGUAUAUACUUGAAAGUA,0.394
CGUGGGGACUUUUCCUCUGGAAAAUACUUUGCCUUCAGGUAUUUGAUUGAAAUAUUUAAGAGUAUUUAAGCUUUCCAGUAUCCUGUAUCAUGUGUAAAUGGAAAAUAUGU,0.41
GAUGGCUCUUGUUCAGUCAAGACCCCAGACUCUGGCCACAAAAAUGCCAUAAUGCCUGUUGGUAUUUGGCAAAGCACUGACCCGUGUCCUCCGUUGCUCGCACUGGGGUC,0.322

# Mixed results
Molecule,target,assay,test system,setting,how to read,quantity,value
"PhoQ, residues 284 288 289 292 302 303 SLGVVW","PhoP, residues 12 14 15 18 19 LWHCS (Escherichia coli, UniProt P23836)","Sort-seq, refers to: YFP reporter",E. coli,"PhoQ-PhoP variant library, with: 10 µM Mg2+","reference: high Mg2+ state, higher = stronger signaling",fold induction,12.2

# For quick reference, copied from above (sample 2):
Oligonucleotide,fitted relative affinity [z-score]
GACGGACTGGGGTATCGGAACGTGCTA,0.783
CGAGTTTCTATTTTCTGAATGTGCTAG,6.12
ATAGATTTCGGGTATCGATTAGTGCTA,3.88
TTAGATACCAGTATCGATTAGTGCTAG,4.63
TTAGATTTCGGGACTGGATTAGTGCTA,0.608
TTTGCTTTCCTTTATGTACTGTGCTAG,1.11
GACGGACTGCTTCTCGTGACGTGCTAG,-0.32
TTGTTTTTTTCTATATGCAAGTGCTAG,1.59
TTAGGTTTCGGTGTCGGTTAGTGCTAG,13.6
TCACATTGCTTTCTCTTACTGTGCTAG,2.22
